Measurements gathered from unrelated publications.
Each numbered part is a random draw from the data of one study; scales do not carry over between parts. Changes are numbered by the printed parent chain.

Study 1 — method: DHFR PCA, deep sequencing; sample: yeast; with: (+)-ABA 17 µM; reference: wild-type fitted maximum; reading: higher = stronger binding
Target: ABI1, truncated, D143A, DHFR fusion (Arabidopsis thaliana)
Setting: methotrexate growth selection, single substitutions
Starting sequence: PYL1, truncated, DHFR fusion (Arabidopsis thaliana); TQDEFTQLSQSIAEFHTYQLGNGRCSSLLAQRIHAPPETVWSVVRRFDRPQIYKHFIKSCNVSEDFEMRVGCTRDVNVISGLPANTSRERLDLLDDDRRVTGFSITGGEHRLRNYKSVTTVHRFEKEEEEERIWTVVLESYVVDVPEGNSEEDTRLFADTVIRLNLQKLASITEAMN; partner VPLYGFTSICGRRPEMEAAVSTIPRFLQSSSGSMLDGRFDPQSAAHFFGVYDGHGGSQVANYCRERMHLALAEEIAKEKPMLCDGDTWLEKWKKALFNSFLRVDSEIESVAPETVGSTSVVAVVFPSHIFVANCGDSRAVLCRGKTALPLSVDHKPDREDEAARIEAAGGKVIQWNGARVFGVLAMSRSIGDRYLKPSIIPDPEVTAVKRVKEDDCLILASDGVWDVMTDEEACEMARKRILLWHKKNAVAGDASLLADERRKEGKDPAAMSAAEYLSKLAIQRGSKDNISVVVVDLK
Under “relative binding score”, `C25R` is recorded as -15.4%.
Under “relative binding score”, `V70R` is recorded as 48.4%.
For `T6V`, “relative binding score” read 85.4%.
Under “relative binding score”, `F47V` is recorded as -1.33%.
For `E89Y`, “relative binding score” read -2.64%.
Under “relative binding score”, `R32N` is recorded as 57.3%.
Under “relative binding score”, `I57W` is recorded as -4.81%.
Under “relative binding score”, `F56E` is recorded as 14.9%.
`G107T`: “relative binding score” 20.5%.
Under “relative binding score”, `T101L` is recorded as 87.8%.
`T86D` — result for “relative binding score”: 66.5%.
For `L82A`, “relative binding score” read 17.3%.
`R163T` — result for “relative binding score”: 70.1%.
`E174N`: “relative binding score” 37.6%.
For `H34P`, “relative binding score” read 62.1%.

Study 2 — method: protein binding microarray; molecule type: double-stranded DNA, one strand shown; sample: in vitro; concentration: not given; reference: not given; reading: higher = stronger binding
Target: Histone acetyltransferase KAT6A, both winged helices, GST fusion (KAT6A, Homo sapiens, UniProt Q92794, residues 1-181)
Setting: 8-mer, flanks averaged, mean of 2 arrays, mostly near background
Residues (chain): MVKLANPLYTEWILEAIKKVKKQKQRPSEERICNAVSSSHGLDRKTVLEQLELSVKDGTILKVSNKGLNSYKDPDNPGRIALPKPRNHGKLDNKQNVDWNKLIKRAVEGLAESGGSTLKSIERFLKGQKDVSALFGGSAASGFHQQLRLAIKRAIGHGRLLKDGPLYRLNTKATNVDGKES
The E-score of `CATCAATC` is reported as -0.0241.
With `CCGCAGCG` the E-score was 0.241.
The E-score of `AATGACGT` is reported as -0.0387.
With `CGTCCTGC` the E-score was -0.0168.
The E-score of `CCCCTTAG` is reported as -0.156.
`CGTAATCC` gave an E-score of 0.0824.
For `AAGATCGC`, the E-score was 0.131.
With `CTCGATTA` the E-score was -0.121.
`ACGAATCT` gave an E-score of -0.11.
The E-score of `CACGCAGA` is reported as 0.0598.
The E-score of `ACCGATTC` is reported as 0.194.
With `CTTCAGTC` the E-score was -0.251.
With `CGACCTCA` the E-score was -0.033.
For `AAACAGTT`, the E-score was 0.118.
`AGGCAGTG` has an E-score of -0.0415.
`CTTACTCA` has an E-score of -0.109.
The E-score of `GAGTTGCA` is reported as -0.193.
For `AACCTCAA`, the E-score was -0.0815.
For `AGTGTTTC`, the E-score was -0.0649.
With `TCATTCAA` the E-score was -0.0209.

Study 3 — target: CCNB2, cyclin fold, Cln2 fusion (human); method: yeast growth competition, sequencing; sample: yeast; setting: weak parent motif; reference: not given; reading: higher = stronger binding
Starting sequence: DNAH7 docking peptide (human); HELFQRLDFDNDG; partner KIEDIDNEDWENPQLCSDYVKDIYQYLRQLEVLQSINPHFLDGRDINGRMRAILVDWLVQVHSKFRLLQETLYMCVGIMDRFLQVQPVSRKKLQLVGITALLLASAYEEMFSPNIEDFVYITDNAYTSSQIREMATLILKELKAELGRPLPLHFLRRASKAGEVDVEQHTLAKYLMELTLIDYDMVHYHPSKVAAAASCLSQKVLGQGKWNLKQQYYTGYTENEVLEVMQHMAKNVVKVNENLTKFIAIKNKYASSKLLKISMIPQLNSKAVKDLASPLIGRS
Under “normalised enrichment score”, `Q5A` is recorded as -0.143.
`D10A` — result for “normalised enrichment score”: -0.227.
`F4A` — result for “normalised enrichment score”: 1.51.
Under “normalised enrichment score”, `N11A` is recorded as 0.169.
`L3A`: “normalised enrichment score” -0.568.
For `D8A`, “normalised enrichment score” read 0.0671.

Other studies, line by line
`PhoQ, residues 284 288 289 292 302 303 AGHLVA` gave a fold induction of 0.329 (PhoP, residues 12 14 15 18 19 LHHVQ (Escherichia coli, UniProt P23836); Sort-seq, measured: YFP reporter; E. coli; PhoQ-PhoP variant library, with: 10 µM Mg2+; reference: high Mg2+ state, higher = stronger signaling).

A few entries again (study 1):
For `L82A`, “relative binding score” read 17.3%.
Under “relative binding score”, `C25R` is recorded as -15.4%.
Under “relative binding score”, `T101L` is recorded as 87.8%.
Under “relative binding score”, `V70R` is recorded as 48.4%.
Under “relative binding score”, `R32N` is recorded as 57.3%.
